Results collected from several papers.
Each numbered part is a random draw from the data of one study; scales do not carry over between parts. Substitutions count along the parent as printed.

Series 1
Target: PABPC1L2, full length, GST fusion (mouse, UniProt A0ABA7IW68)
Technique: RNAcompete
Form: RNA
Medium: in vitro
Concentration: 20 nM
Notes: 7-mer, probes averaged, single round
Relative to: mean of 7-mers
Direction: higher = stronger binding
Oligonucleotide	7-mer Z-score
GCAAGCG	-0.0536
CUUAGGA	-0.137
UGCUGGC	-0.242
AACGACU	0.149
UGUCCCC	-0.371
GGGGUUC	0.122
CAGACAG	0.0678
CGUUCCC	-0.49

Series 2
Target: CCND3, cyclin fold, Cln2 fusion (human)
Technique: yeast growth competition, sequencing
Medium: yeast
Notes: weak parent motif
Relative to: not given
Direction: higher = stronger binding
Starting sequence: USP37 docking peptide (human); PSAKRSLGFLPQP; partner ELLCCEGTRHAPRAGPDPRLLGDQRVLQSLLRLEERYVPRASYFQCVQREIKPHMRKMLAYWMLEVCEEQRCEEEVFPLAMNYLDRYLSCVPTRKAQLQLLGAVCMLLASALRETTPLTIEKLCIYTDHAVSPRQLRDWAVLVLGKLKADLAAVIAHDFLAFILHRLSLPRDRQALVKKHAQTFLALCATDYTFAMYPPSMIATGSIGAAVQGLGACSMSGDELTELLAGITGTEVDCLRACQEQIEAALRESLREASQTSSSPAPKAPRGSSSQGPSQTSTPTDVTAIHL
Change	normalised enrichment score
R5A	0.0587
L7A	0.157
P13A	0.305
S6A	0.412
P11A	0.0679
F9A	-0.108

Series 3
Target: RNA binding protein fox-1 homolog 2, RRM domain, GST-SBP tag (RBFOX2, Homo sapiens, UniProt O43251-10, residues 100-194)
Technique: RNA Bind-n-Seq
Form: RNA
Medium: in vitro
Concentration: 365 nM
Notes: natural RNA segment, single round, ends assumed
Relative to: no-protein control
Direction: higher = stronger binding
Residues (chain): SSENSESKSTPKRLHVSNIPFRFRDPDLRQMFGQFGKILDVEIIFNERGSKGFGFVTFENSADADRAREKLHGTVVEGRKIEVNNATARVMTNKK
Oligonucleotide	RBNS enrichment (R)
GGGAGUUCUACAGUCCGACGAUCGCCUCCGACAGUGUCCUCGCUCUACCUCUGACCUCUCCGGAGGUUCCGCUGCCUCCAAGCCGGACUUAGGGCUUCAAGAGGCGGGCGUGCCCUCUGGAGUCCCCUACCAUUGGAAUUCUCGGGUGCCAA	0.279
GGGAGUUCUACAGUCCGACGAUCAUGGCUUUCCCAGAAGACACUCCUGGCCAUCUGUGGAUUUGUCUGUGCACCUAUUGGCUCUUCUAGCUGACUCUUCUGGUUGGGCUUAGAGUCUGCCUGUUUCUGCUAGCUGGAAUUCUCGGGUGCCAA	0.479
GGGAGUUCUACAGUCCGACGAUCCAAUGUGAAAAUCCACUCUUUUAUUAUGUUGAGAUUAUCUUCUGAUCAGGAAGUUUGAGUGCUAUGCAAAUAACAUAGUAGUAAUUUCUCUUUGCAUGCCAUGUGUAAUAUGGAAUUCUCGGGUGCCAA	5.65
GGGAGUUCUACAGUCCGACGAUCAACUCUCAUGUAGGAUUUUUAAAGGACCGGUAAAGAAUGGUGUUUGAGAAAUGGUGUAUGAUGCCUGGUGGUGGUAGGGGUGCGUAUUGAAACCCAGCGCGCAGUUCUCUUGGAAUUCUCGGGUGCCAA	1.27
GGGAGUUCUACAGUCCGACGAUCCUUGCAGGAGAAGCAAUGGAGUCAGUGUGGUGUGGGGAGACCUACUUUUUAACCUGGGCUUAGCCACCUGCUCUGUGAUCCAGGGCUUACCUUCUUUGGGCCUCGGCCUCUGGAAUUCUCGGGUGCCAA	0.229
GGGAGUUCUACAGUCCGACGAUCCACUUACUGGGCCCCGGUCGAAAUUGUGAAAAAUACCCUAAUGAUUAAUAAGGAAUUUUAAUCUAGAAUUUUGAUCUUUGUAAAAAAAGGGGAAAAAGGGUAGUUUGUUUUGGAAUUCUCGGGUGCCAA	0.503
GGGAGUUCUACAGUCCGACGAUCAGAAGCCAAGUGGGACUCACUGCUGCCAUUCUCCUUGUGCUUGGUCUUCACUAGACCCCAGCCCCCUCUACCCUUCUUACCACCUCCCUAUAGCCUCAGCUUCAGAAGCCUGGAAUUCUCGGGUGCCAA	0.689
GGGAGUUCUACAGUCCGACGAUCAGCCAGAUUUCAUUUCUAUUCUUGUUUUAUGUGCCAAACCCCAAAGUGCAUUGGGCCUGAAUCUCUGAACACUGUAGACCCAUUAGAAGGAAGAUUGUUCUGACCGUCACUGGAAUUCUCGGGUGCCAA	0.625

Other studies, line by line
Structure (SMILES)	cell line	assay	test system	conditions	scale	quantity	value
Cn1nc(C(F)(F)F)cc1-c1cnc(N2CCc3cc(S(=O)(=O)Nc4c(F)cc(Cl)cc4F)cc(N4CCCC4=O)c32)nc1	normal organoid sample H	CellTiter-Glo	human, normal-adjacent epithelium	1 µM	relative to: DMSO	viability	97.8%

Excerpt of the above (series 3):
Oligonucleotide	RBNS enrichment (R)
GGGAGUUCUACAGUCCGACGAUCAGAAGCCAAGUGGGACUCACUGCUGCCAUUCUCCUUGUGCUUGGUCUUCACUAGACCCCAGCCCCCUCUACCCUUCUUACCACCUCCCUAUAGCCUCAGCUUCAGAAGCCUGGAAUUCUCGGGUGCCAA	0.689
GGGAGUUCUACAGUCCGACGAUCAACUCUCAUGUAGGAUUUUUAAAGGACCGGUAAAGAAUGGUGUUUGAGAAAUGGUGUAUGAUGCCUGGUGGUGGUAGGGGUGCGUAUUGAAACCCAGCGCGCAGUUCUCUUGGAAUUCUCGGGUGCCAA	1.27
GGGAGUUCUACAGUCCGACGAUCCUUGCAGGAGAAGCAAUGGAGUCAGUGUGGUGUGGGGAGACCUACUUUUUAACCUGGGCUUAGCCACCUGCUCUGUGAUCCAGGGCUUACCUUCUUUGGGCCUCGGCCUCUGGAAUUCUCGGGUGCCAA	0.229
